Measurements gathered from unrelated publications.
Each numbered part is a random draw from the data of one study; scales do not carry over between parts. Positions count from the first letter of the parent shown.
Sequence of UniProt Q93WC4 (whole entry, looked up): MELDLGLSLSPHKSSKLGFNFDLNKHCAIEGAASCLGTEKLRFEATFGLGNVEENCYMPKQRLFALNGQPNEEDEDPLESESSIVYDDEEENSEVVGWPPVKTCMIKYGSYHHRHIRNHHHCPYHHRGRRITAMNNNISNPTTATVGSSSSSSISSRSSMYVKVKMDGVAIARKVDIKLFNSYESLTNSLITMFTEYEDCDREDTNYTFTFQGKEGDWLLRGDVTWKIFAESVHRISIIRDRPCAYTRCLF
Sequence of UniProt Q9FGV1 (whole entry, looked up): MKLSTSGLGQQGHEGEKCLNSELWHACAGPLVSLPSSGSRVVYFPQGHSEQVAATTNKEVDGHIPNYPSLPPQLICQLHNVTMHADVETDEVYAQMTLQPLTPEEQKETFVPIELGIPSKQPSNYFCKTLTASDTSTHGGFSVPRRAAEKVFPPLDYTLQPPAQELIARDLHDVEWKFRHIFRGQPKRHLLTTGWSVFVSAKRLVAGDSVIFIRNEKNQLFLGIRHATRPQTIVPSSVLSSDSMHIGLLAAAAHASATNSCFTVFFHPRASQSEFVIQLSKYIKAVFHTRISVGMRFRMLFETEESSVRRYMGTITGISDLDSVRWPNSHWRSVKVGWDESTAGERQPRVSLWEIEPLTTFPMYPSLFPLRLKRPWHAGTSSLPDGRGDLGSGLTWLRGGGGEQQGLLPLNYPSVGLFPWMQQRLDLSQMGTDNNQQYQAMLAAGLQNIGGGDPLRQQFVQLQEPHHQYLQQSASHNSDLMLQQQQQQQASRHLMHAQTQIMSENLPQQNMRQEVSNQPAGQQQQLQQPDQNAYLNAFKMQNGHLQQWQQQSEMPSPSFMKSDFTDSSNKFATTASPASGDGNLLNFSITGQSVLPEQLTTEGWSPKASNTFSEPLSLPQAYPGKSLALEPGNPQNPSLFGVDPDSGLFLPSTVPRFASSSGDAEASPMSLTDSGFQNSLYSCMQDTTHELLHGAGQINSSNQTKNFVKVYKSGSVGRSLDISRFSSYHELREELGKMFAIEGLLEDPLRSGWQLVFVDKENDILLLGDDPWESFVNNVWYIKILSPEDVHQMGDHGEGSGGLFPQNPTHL
Sequence of UniProt Q8RYC8 (whole entry, looked up): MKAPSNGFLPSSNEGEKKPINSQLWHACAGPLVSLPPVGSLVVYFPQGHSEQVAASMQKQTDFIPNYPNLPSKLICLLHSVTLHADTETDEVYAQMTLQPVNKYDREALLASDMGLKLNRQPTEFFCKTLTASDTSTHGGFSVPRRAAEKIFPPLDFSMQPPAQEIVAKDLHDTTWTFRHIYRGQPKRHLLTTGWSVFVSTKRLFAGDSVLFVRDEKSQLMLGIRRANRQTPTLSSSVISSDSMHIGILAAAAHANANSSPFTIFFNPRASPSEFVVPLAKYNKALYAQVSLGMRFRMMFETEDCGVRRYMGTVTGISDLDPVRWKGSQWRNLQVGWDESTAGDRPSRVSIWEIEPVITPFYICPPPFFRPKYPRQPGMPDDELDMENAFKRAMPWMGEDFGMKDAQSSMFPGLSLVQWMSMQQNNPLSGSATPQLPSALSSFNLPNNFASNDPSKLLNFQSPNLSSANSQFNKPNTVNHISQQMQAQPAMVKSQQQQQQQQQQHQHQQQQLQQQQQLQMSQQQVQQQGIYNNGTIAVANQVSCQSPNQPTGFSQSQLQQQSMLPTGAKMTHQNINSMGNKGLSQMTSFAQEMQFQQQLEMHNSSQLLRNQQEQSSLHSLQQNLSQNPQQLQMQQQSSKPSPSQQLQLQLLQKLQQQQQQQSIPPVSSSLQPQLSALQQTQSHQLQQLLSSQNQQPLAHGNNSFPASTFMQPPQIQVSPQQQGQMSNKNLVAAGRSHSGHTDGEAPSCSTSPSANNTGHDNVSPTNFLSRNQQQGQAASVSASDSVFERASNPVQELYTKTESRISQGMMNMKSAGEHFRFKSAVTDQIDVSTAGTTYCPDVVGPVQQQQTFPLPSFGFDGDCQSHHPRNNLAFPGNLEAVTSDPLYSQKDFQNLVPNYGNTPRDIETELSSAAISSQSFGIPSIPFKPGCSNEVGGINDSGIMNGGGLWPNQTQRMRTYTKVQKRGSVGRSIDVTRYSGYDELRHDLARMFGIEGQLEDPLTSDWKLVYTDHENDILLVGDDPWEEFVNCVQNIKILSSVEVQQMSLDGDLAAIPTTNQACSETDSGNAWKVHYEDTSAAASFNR
Sequence of UniProt O24409 (whole entry, looked up): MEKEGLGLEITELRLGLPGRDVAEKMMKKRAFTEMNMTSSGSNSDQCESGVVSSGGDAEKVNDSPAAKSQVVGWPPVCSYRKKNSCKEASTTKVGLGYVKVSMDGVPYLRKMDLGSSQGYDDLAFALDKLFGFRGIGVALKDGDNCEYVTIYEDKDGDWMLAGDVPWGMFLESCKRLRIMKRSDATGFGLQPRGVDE
Sequence of UniProt Q9SKN5 (whole entry, looked up): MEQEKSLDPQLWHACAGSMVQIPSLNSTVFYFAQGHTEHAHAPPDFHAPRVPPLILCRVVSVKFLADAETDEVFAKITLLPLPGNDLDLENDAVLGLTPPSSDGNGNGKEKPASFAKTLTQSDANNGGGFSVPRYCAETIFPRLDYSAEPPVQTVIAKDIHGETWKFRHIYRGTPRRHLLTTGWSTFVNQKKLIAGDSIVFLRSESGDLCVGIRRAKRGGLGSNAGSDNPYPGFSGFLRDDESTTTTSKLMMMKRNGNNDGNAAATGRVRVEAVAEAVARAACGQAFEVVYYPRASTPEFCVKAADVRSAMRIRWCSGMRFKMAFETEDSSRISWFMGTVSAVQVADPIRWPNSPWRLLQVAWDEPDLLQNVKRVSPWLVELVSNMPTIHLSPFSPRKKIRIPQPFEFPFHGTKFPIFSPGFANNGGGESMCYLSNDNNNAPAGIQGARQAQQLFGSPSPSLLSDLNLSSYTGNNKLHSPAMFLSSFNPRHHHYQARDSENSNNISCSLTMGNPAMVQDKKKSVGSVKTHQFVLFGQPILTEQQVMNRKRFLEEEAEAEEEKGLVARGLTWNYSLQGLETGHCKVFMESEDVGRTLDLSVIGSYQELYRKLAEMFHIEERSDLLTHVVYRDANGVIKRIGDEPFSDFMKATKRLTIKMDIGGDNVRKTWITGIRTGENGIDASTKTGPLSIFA
Sequence of UniProt P93830 (whole entry, looked up): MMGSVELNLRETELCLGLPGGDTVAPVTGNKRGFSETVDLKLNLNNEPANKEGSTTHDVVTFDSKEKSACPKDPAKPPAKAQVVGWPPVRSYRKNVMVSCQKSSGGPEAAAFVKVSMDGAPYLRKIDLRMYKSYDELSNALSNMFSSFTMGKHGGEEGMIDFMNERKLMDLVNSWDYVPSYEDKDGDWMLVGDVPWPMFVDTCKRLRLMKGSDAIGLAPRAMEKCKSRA

Sample 1
Sequence: B1 (IAA10)
Method: two-hybrid
Reference: out of 4 tests
Reading: higher = firmer interaction
Measurement: positive tests
B1: IAA10 (Arabidopsis thaliana, UniProt Q38828); chain MNGLQEVCSSSGSVMIGLPAEEDENAAHSSEDSSCPDESVSETELDLALGLSIGRRKVRSSLSSSSSSLTRESGTKRSADSSPAAASNATRQVAVGWPPLRTYRINSLVNQAKSLATEGGLSSGIQKETTKSVVVAAKNDDACFIKSSRTSMLVKVTMDGVIIGRKVDLNALDSYAALEKTLDLMFFQIPSPVTRSNTQGYKTIKETCTSKLLDGSSEYIITYQDKDGDWMLVGDVPWQMFLGSVTRLRIMKTSIGAGVGK
IAA19 (Arabidopsis thaliana, UniProt O24409): 2
ARF10 575-693 (Arabidopsis thaliana, UniProt Q9SKN5): 1
ARF8 699-811 (Arabidopsis thaliana, UniProt Q9FGV1): 4
ARF19 948-1086 (Arabidopsis thaliana, UniProt Q8RYC8): 3
IAA29 (Arabidopsis thaliana, UniProt Q93WC4): 0
IAA17 (Arabidopsis thaliana, UniProt P93830): 3

Sample 2
Target: Histone acetyltransferase KAT6A, both winged helices, GST fusion (KAT6A, Homo sapiens, UniProt Q92794, residues 1-181)
Method: protein binding microarray
Molecule type: double-stranded DNA, one strand shown
Medium: in vitro
Concentration: not given
Setting: 8-mer, flanks averaged, mean of 2 arrays, mostly near background
Reference: not given
Reading: higher = stronger binding
Measurement: E-score
Construct (chain): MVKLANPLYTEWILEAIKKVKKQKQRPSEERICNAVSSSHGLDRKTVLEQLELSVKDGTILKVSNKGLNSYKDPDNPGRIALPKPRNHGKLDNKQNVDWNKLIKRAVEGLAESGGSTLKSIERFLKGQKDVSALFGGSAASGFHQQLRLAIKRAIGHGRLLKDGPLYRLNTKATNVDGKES
CGGGTAAC: 0.24
CCATGACG: 0.0427
ACCTAGAG: -0.0535
AGTAATTC: -0.00404
AGCGAGCT: -0.0714
CATGGCGC: 0.252
ACAGTAAT: -0.0733
ACTGCTAT: -0.131

Sample 3
Target: CCND1, cyclin fold, Cln2 fusion (human)
Method: yeast growth competition, sequencing
Medium: yeast
Setting: strong parent motif
Reference: not given
Reading: higher = stronger binding
Measurement: normalised enrichment score
Parent: viral docking peptide; YKVKRRLVFGADD
F9H: -0.0891
V8Q: 2.06
K4L: 0.68
A11L: 1.97
G10H: 1.26
D12E: 2.02
V8Y: 1.91
V3G: 0.418
V3A: 5.57
K2L: 1.27
F9L: 0.189
A11Q: 1.89
V8H: 1.33
R5K F9L: -0.2

Sample 4
Target: HLA class I histocompatibility antigen, C alpha chain, allele C*04:01 (Homo sapiens, UniProt P10321)
Effect on: peptide-MHC binding
Molecule type: peptide
Concentration: concentration not given
Measurement: binding
YAYNSSLLY: inactive
RPRPRTPEW: inactive
YYSNKVFPI: inactive

Repeated from above (sample 4):
YAYNSSLLY: inactive
RPRPRTPEW: inactive
YYSNKVFPI: inactive
